Experimental data pooled from the literature.
Numbered parts are unrelated; each lists some results of a single study.

Sample 1
Target: Interferon regulatory factor 5, full length, phosphomimetic (IRF5, Homo sapiens, UniProt Q13568-2, residues 1-514, S451D/S453D/S456D/S462D)
Method: protein-binding microarray
Form: double-stranded DNA, one strand shown
Medium: in vitro
Tested at: 940 nM top
Notes: 60-bp whole probe
With: salmon DNA 0.4 mg/ml
Reference: random background probes
Reading: higher = stronger binding
All sequences stand within: GCCTAGCAC … GTCTTGATTCGCTTGACGCTGCTG
Sequence	fitted relative affinity
TTAGCTTCCGGTTTCGGTTAGTGCTAG	8.59 z-score
GACGATATCAGTATCGATACGTGCTAG	5.43 z-score
GCCGGTATCGGACTGGGGACGTGCTAG	3.08 z-score
TTAGGACTGGGGACTGCGTTAGTGCTA	-0.279 z-score
TTAGGTATCGACTTTAGGTTAGTGCTA	4.78 z-score
GGGAGATGACTAAGAGGGGTGTGCTAG	-0.311 z-score
GACGGTGTCGACTTTCGGGACGTGCTA	1.21 z-score
CTTTCTTTAACATATTCTCTTGTGCTA	1.93 z-score
TTCGGTATCGGTTTCGGTTAGTGCTAG	12.7 z-score
GACGATATCAGGTTTCGAGACGTGCTA	2.32 z-score
TTATGTCTCGGACTGGGTTAGTGCTAG	0.945 z-score
GACGGTATCGGGCCTGGGGACGTGCTA	2.53 z-score
GACGCACTGCTACTGCTGACGTGCTAG	-0.259 z-score
GACGGTATCGGGTATCGGGTCGTGCTA	6.04 z-score
GGTTTTCTCTGGTTCTTGCTGTGCTAG	1.86 z-score
GACGGACTGGGACTGGGCACGTGCTAG	-0.708 z-score
TCAATTCTCTTCTTGCAACTGTGCTAG	1.16 z-score
GACGGTCTCGGACTGGCGACGTGCTAG	0.594 z-score
CCTCGTCTCTATCAAAAATAGTGCTAG	1.34 z-score

Sample 2
Target: Ras GTPase-activating protein-binding protein 1, C-terminal RGG region (G3BP1, Homo sapiens, UniProt Q13283)
UniProt Q13283, sequence (whole entry, looked up): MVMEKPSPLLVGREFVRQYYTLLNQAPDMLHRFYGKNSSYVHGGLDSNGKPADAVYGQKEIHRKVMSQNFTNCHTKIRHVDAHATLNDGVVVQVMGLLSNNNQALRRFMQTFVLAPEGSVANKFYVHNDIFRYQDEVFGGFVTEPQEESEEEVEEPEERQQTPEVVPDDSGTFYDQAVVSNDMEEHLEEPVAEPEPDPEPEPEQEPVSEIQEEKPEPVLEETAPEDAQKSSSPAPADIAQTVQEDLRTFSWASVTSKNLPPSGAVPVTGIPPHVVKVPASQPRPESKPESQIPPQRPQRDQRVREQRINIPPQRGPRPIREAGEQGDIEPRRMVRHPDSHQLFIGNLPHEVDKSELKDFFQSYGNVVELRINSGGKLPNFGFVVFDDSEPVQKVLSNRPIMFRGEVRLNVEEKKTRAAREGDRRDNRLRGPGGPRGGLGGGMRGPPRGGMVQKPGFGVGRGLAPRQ
Method: RNA Bind-n-Seq
Form: RNA
Medium: in vitro
Tested at: 1 µM
Notes: whole 134-nt RNA, ends assumed
With: 150 mM KCl
Reference: input library
Reading: higher = stronger binding
All sequences stand within: GGGAGUUCUACAGUCCGACGAUC … UGGAAUUCUCGGGUGUCAAGG
Sequence	log2 enrichment
UCCUGUGCUACACAUCGUAUGUACCGAAUCGGGGAAAAAAAGGGGAGGGGUUUUUGGGGAAAGUAUUAUGUUACGCCGUUCGGAUCUGCA	1.78
UCAAGUCCUGUGCUACACAUCGUAUGUACCGAAUCGGUGGAAAAAAAGGAAAGGAAAGUAUUAUGUUACGCCGUUCGGAUCUGCACUUCC	-1.4
GCAGGAAGUAAAAACAAAUGGAAAUGCUUCGGCUAGUGGCAGGGGUGGGGGUUGCUAAGGAAAGGGUGGGAUGGGAGUGGGUAAAGAGUU	1.99
GUCCUGUGCUACACAUCGUAUGUACCGAAUCGGGAAAAAGGGGAAAAAGGAAAAAGGGAAAGUAUUAUGUUACGCCGUUCGGAUCUGCAC	-1.24
AGUCCUGUGCUACACAUCGUAUGUACCGAAUCGGGAAAAAGGGAGGGAAAAAAAGGGAAAGUAUUAUGUUACGCCGUUCGGAUCUGCACU	0.139
UCCUGUGCUACACAUCGUAUGUACCGAAUCGGGGUUUUUGGGGUGGGGUUUUUUUGGGGAAAGUAUUAUGUUACGCCGUUCGGAUCUGCA	1.86
CCUGUGCUACACAUCGUAUGUACCGAAUCGGGGUUUUUGGGGUUUGGGGAAAAAAAGGGGAAAGUAUUAUGUUACGCCGUUCGGAUCUGC	0.428
CAGCAGUGAGUCUCUUCAGAAAACCCUUUUCUACAGUUAGGGUUGAGUUACUUCCUAUCAAGCCAGUACGUGCUAACAGGCUCAAUAUUC	-1.62
UAACUUUAGAGGAGGAUCUGAUGGAUAUGGCAGUGGAUGUGGAUUUGGGGAUGGCUAUAAUGGGUAUGGAGGAGGACCUGGAGGUGGCAA	-1.23

Sample 3
Target: Histone acetyltransferase KAT6A, both winged helices, GST fusion (KAT6A, Homo sapiens, UniProt Q92794, residues 1-181)
Method: protein binding microarray
Form: double-stranded DNA, one strand shown
Medium: in vitro
Tested at: not given
Notes: 8-mer, flanks averaged, mean of 2 arrays, mostly near background
Reference: not given
Reading: higher = stronger binding
Target sequence (chain): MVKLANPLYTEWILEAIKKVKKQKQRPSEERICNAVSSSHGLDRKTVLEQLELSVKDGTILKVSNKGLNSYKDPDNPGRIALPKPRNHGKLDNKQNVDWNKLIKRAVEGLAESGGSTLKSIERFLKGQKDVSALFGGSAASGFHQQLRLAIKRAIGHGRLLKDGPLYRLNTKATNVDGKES
Sequence	E-score
GGATGTAA	0.0432
CCACACAG	-0.149
GTGGGGGA	-0.155
ATTGATCA	-0.0979
ATCACCCA	-0.157
CGGTACGC	0.296
GGTTGGAA	-0.0318
CTACTATA	-0.0461
GTTTGGTA	-0.0493
AAAGAGCA	-0.076
AAATCGCT	0.051
GTCAACAC	-0.0327
CGCATAAC	0.181
CAATACGA	0.0436
ATGAAGGG	-0.205
ACATATTG	-0.202
GCATATAA	0.0513

Sample 4
Target: RNA binding protein fox-1 homolog 2, RRM domain, GST-SBP tag (RBFOX2, Homo sapiens, UniProt O43251-10, residues 100-194)
Method: RNA Bind-n-Seq
Form: RNA
Medium: in vitro
Tested at: 365 nM
Notes: natural RNA segment, single round, ends assumed
Reference: no-protein control
Reading: higher = stronger binding
All sequences stand within: GGGAGUUCUACAGUCCGACGAUC … UGGAAUUCUCGGGUGCCAA
Construct (chain): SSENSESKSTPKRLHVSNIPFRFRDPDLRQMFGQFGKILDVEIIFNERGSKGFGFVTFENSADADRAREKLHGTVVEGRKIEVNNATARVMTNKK
Sequence	RBNS enrichment (R)
CACAAAUGUUAUUUAAAAGCAUCUUCUCACCUACAUAGAAGUAAACAAAACACACAAUUUGGGAUUUUGACUCUUCAGUUUUGACCUCACUUCUCCUGGAUCCAACCUGA	0.893
CAUUUGGUUCAGAAUCAGUUCCCUUUCUCUGGGACCAAAUUUCCCUUCUCUAAACAUCCUACAGAGAAGGUUCCAAAGCUGAGCACCCAUCACCCUAGGUGUGCACCAGA	0.4
ACCUGCAGCGGCUGCCCUCUGGGGCCACUUGGUAGUGUCCCCAGCCUACCUCUCCACAAGGGGAUUUUGCUGAUGGGUUCUUAGAGCCUUAGCAGCCCUGGAUGGUGGCC	0.228
GUGGCUCAUGAAAUCACAGAGCUCAGAGAUACCAUCUUGAGAAAUCCUCCUUGGUAUCAUGAAACUGGAGCAGAGGAAUUGCAAUUUAGCAGGAGGUCCUCUACUGGUGA	0.252
GGGAUCUUGCUCACAAGAAUCACUUUUAAGAUCUUUUAGGGCUGUUAAUUUUAUUUUUCUCAGUGUUCUGGACACUGUAGACCUGUGCAGUACUCCCACAGGCCUGACUA	0.357
AUGGAGUUGGAGUUCAUUCAUAUUACAAUAUUUGUGUGCUAAACGUGUAUGUUUUUCAGUUCAAAGUCAUGAUGUUUUUAAAAUCUUAUUAAAGUUUCAAAAAUCUGAAG	0.617
CUGGUGACAUGGCACCACUCAGCAGUGCUGUCACUGUAAGCAUGGACUCCCAGGAGACAGUGUGGGAAACGCUCCUGCUUUAAUUCCCCGAGAAACGGCUCUUCCUGCCU	0.929
GGAGAGCUGAGUCCUCUGUGGGUUCUGUAUUUAUCCAUUUGGCUUGAAGCUUUGUUUAUAUAUCGGCUGCUUUUUUUUUUUUAAAUGCUCAGACCAUUAUUUAUUUCUUG	0.573
